Assay results pooled from the literature.
Lines come from different studies, so protocols differ. Values joined by “and” are separate records of one study, mostly repeats; a detail may differ. Numbers after ± are the reported error.
ADORA1: Adenosine receptor A1 (ADORA1, Homo sapiens, UniProt P30542)
Sequence of UniProt P30542 (whole entry, looked up): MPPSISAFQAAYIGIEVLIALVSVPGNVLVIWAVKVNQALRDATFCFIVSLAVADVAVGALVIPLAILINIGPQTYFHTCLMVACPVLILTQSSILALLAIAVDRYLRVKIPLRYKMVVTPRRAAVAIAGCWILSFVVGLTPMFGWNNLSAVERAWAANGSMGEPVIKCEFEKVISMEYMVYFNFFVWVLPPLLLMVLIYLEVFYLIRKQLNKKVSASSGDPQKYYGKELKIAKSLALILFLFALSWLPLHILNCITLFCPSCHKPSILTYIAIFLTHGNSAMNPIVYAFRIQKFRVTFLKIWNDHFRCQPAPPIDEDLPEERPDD
RIPK2: Receptor-interacting serine/threonine-protein kinase 2 (RIPK2, Homo sapiens, UniProt O43353)
Sequence of UniProt O43353 (whole entry, looked up): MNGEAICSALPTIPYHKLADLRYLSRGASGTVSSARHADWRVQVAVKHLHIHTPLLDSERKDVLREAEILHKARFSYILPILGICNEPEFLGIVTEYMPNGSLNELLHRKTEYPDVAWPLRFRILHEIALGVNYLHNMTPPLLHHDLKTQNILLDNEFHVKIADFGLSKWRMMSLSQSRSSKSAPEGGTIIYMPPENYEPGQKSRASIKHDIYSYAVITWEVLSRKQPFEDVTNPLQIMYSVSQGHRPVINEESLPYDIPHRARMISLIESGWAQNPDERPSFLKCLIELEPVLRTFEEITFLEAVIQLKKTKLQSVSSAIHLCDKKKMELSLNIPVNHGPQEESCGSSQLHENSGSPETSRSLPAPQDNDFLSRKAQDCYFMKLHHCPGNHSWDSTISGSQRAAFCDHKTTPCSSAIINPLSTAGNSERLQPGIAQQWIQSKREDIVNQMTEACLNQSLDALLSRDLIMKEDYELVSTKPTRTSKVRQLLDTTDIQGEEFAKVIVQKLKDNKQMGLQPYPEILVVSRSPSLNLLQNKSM
ELANE: Neutrophil elastase (ELANE, Homo sapiens, UniProt P08246)
Sequence of UniProt P08246 (whole entry, looked up): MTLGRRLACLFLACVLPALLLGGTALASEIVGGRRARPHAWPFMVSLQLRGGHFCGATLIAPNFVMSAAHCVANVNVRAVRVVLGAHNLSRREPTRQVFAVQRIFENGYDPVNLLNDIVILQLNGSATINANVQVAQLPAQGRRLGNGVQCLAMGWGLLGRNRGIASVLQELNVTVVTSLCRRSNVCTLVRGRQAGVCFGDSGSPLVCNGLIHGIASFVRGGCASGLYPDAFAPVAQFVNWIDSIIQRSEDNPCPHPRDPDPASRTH
ABCG2: Broad substrate specificity ATP-binding cassette transporter ABCG2 (ABCG2, Homo sapiens, UniProt Q9UNQ0)
Sequence of UniProt Q15391 (whole entry, looked up): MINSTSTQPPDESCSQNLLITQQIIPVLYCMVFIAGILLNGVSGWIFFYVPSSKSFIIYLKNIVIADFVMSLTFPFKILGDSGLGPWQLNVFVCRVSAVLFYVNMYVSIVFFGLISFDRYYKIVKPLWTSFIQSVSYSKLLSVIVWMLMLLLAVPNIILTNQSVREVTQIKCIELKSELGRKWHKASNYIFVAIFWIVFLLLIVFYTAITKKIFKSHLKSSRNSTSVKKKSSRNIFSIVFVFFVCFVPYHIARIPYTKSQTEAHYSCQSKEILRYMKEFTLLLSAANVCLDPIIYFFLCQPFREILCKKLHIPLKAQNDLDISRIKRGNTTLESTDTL
Sequence of UniProt Q9UNQ0 (whole entry, looked up): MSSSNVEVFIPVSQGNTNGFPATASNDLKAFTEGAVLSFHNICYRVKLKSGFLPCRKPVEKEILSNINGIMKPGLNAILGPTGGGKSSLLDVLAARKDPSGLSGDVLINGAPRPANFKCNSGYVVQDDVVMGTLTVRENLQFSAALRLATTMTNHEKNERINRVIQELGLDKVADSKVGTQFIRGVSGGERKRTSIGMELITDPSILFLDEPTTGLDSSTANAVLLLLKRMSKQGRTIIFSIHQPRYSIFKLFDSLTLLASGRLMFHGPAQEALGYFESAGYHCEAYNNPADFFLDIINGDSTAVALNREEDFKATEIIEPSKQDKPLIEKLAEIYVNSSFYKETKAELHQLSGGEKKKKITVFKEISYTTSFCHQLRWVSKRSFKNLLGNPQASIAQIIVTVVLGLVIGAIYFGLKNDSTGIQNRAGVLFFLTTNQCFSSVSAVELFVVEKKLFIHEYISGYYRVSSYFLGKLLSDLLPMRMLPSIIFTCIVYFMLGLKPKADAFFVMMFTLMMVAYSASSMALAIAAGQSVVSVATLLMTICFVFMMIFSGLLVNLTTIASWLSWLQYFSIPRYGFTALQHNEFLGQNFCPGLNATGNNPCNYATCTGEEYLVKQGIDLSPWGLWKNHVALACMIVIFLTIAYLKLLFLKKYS
Sequence of UniProt Q96KQ7 (whole entry, looked up): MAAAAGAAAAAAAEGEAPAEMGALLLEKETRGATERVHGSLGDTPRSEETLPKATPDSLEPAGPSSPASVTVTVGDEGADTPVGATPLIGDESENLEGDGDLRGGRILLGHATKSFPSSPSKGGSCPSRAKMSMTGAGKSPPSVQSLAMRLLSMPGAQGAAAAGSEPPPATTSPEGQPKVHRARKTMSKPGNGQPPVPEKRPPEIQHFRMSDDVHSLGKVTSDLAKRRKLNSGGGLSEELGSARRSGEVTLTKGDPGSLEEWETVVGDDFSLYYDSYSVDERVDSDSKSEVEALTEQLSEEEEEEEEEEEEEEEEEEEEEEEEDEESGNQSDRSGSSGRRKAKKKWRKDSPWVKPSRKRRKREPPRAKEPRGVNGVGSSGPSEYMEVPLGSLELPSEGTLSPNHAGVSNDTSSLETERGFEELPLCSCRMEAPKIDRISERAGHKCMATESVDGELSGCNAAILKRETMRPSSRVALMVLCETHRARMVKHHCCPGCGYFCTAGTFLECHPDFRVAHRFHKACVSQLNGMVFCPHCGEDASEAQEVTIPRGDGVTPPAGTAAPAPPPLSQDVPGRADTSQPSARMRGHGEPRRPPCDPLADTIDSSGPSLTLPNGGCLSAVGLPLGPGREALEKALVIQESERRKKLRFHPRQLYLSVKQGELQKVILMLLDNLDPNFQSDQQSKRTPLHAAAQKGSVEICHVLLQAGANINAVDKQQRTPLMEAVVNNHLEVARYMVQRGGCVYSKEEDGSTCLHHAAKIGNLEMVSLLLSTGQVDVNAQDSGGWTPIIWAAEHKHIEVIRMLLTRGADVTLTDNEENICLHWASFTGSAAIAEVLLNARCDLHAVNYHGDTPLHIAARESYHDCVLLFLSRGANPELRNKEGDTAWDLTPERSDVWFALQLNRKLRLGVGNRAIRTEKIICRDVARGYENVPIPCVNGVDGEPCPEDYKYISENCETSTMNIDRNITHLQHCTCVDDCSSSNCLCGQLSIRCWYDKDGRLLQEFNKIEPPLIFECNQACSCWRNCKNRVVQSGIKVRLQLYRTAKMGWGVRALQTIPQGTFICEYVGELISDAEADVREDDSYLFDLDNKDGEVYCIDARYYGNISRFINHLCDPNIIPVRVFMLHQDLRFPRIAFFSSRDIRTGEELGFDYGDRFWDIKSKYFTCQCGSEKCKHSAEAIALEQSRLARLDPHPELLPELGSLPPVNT
Sequence of UniProt P56524 (whole entry, looked up): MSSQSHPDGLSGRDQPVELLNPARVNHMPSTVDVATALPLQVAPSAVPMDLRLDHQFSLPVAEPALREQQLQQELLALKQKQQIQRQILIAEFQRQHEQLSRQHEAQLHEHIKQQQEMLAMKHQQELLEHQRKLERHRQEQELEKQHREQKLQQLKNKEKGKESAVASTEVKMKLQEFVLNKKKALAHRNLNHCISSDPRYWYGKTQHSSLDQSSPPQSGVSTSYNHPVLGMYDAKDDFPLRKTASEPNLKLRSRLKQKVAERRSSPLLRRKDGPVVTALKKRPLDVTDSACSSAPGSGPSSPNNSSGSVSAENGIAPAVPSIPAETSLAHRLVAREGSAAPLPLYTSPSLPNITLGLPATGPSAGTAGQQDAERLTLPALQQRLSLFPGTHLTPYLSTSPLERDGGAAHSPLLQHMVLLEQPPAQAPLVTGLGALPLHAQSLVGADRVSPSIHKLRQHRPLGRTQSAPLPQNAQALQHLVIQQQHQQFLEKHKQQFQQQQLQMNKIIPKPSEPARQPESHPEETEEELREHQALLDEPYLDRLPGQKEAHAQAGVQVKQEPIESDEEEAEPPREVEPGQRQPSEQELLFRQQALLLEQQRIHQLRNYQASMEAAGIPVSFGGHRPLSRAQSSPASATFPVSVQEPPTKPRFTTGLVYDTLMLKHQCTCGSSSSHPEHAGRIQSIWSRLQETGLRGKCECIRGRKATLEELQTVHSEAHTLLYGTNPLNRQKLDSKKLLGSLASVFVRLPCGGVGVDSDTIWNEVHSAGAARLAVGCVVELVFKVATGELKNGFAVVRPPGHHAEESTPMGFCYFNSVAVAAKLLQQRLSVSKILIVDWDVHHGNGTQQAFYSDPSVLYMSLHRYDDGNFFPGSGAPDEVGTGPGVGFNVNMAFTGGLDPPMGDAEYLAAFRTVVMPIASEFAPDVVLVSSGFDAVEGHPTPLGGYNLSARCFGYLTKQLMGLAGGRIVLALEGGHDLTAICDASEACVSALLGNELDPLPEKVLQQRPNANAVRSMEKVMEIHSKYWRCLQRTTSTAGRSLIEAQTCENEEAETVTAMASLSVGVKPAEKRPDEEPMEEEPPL
Sequence of UniProt Q13882 (whole entry, looked up): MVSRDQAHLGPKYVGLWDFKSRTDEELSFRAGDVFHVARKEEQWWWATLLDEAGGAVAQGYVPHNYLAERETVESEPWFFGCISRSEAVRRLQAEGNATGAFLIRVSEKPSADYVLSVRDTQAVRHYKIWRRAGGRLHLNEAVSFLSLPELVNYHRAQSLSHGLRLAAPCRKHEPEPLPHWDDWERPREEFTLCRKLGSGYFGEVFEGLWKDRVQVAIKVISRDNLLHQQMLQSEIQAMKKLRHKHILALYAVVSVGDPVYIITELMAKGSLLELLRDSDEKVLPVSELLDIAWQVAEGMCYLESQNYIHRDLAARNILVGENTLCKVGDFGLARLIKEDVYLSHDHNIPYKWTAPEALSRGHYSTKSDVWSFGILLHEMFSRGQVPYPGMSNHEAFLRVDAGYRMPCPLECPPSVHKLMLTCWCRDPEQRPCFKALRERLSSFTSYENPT

`CCOc1cncc(-c2ccc(NC(=O)C3(c4ccnc(NS(=O)(=O)C5CC5)n4)CCOCC3)nc2)n1` has an IC50 of 9.3 nM (CTP synthase 1 (Homo sapiens, UniProt P17812); enzyme activity, inhibitor, mass spectrometry).
`C=CS(=O)(=O)Nc1ccc2nc(NCCCCCN(C)C)nc(NCCCCCCN(C)C)c2c1` gave an IC50 of 730 ± 670 nM (Histone-lysine N-methyltransferase SETDB1, triple Tudor domain (SETDB1, Homo sapiens, UniProt Q15047); binding, inhibitor).
`CCNC(=O)[C@H]1O[C@@H](n2cnc3c(NCCCCNC(=O)CCCCCN4/C(=C/C=C/C=C/C5=[N+](CC)c6ccc(S(=O)(=O)O)cc6C5(C)C)C(C)(C)c5cc(S(=O)(=O)[O-])ccc54)ncnc32)[C@H](O)[C@@H]1O` has an IC50 of 5370 nM (ADORA1; CRE reporter gene, agonist; CHO-A1; Gi-mediated inhibition, together with: forskolin).
The IC50 of `N=C(N)NCCC[C@H](NC(=O)[C@H](CC(=O)O)NC(=O)[C@@H]1CSCCCC(=O)NCC(=O)N[C@@H](Cc2c[nH]cn2)C(=O)N[C@H](Cc2ccccc2)C(=O)N[C@@H](CCCNC(=N)N)C(=O)N[C@H](Cc2c[nH]c3ccccc23)C(=O)N1)C(=O)N[C@@H](Cc1ccccc1)C(=O)NCC(N)=O` is reported as 17 nM (MC1R (Homo sapiens, UniProt Q01726); ligand displacement, radioligand).
The IC50 of `CCNC(=O)[C@H]1O[C@@H](n2cnc3c(NCCCCNS(=O)(=O)c4cccc5c(N(C)C)cccc45)ncnc32)[C@H](O)[C@@H]1O` is reported as 1120 nM (ADORA1; CRE reporter gene, agonist; CHO-A1; Gi-mediated inhibition, together with: forskolin).
For `Cc1cc(NC(=O)c2cccc(-n3cc(NC(=O)Nc4ccccc4Cl)cn3)c2)ccn1`, the IC50 was 115 nM (MAPK10 (Homo sapiens, UniProt P53779); enzyme activity, inhibitor, TR-FRET).
The IC50 of `O=C(/C=C(\O)C(F)(F)C(F)(F)F)c1cccnc1` is reported as 870 ± 60 nM (Formate-nitrite transporter (Plasmodium knowlesi, UniProt A0A679KXN5); L-lactate transport, inhibitor; yeast; pH 6.8, together with: 14C-L-lactate 1 mM).
`CCC=CCC=CCC=CCC=CCC=CCC=CCCC(=O)Oc1cc(C(=O)O[C@@H]2Cc3c(O)cc(O)cc3O[C@@H]2c2cc(OC(=O)CCC=CCC=CCC=CCC=CCC=CCC=CCC)c(O)c(OC(=O)CCC=CCC=CCC=CCC=CCC=CCC=CCC)c2)cc(OC(=O)CCC=CCC=CCC=CCC=CCC=CCC=CCC)c1O` has an IC50 of 6 nM (Genome polyprotein, protease (Hepatitis C virus genotype 1a, UniProt P27958); enzyme activity, inhibitor, fluorescence).
For `O=c1c2ccccc2sn1-c1ccccc1`, the IC50 was 4120 nM (HDAC4 (Homo sapiens, UniProt P56524); enzyme activity, inhibitor).
With `N=C(N)NCCCC(N)C(=O)NCC(=O)NC(CCCNC(=N)NCCCSCC1OC(n2cnc3c(N)ncnc32)C(O)C1O)C(N)=O` (stereo not drawn) the IC50 was > 100000 nM (EHMT2 (Homo sapiens, UniProt Q96KQ7); enzyme activity, inhibitor, fluorescence).
`COc1nc2c(N)[n+]3cnc2n1[C@@H]1O[C@H](COP(=O)([O-])OP(=O)(O)OC[C@H]2O[C@@H]3[C@H](O)[C@@H]2O)[C@@H](O)[C@H]1O` has an IC50 of 4800 nM (cADPR receptor, sea urchin; cADPR-induced Ca2+ release, antagonist, fluo-3 fluorimetry; sea urchin egg homogenate).
The IC50 of `CC(C)NC(=O)N1CC=C(c2cc3c(Nc4ccc5scnc5c4)ncnc3s2)C1` is reported as 25 nM (RIPK2; enzyme activity, inhibitor).
For `CC(C)c1ccc(C(=O)Nc2ccc(CN3CCN(C)CC3)c(C(F)(F)F)c2)cc1C#Cc1cnc2cccnn12`, the IC50 was 630 nM (RIPK2; enzyme activity, inhibitor, ADP detection).
`Cc1ccc(C(=O)Nc2ccc(CP(=O)(O)O)cc2CP(=O)(O)O)cc1NC(=O)c1cccc(NC(=O)Nc2cccc(C(=O)Nc3cc(C(=O)Nc4ccc(CP(=O)(O)O)cc4CP(=O)(O)O)ccc3C)c2)c1` has an IC50 of 16600 nM (ELANE; enzyme activity, inhibitor, absorbance; pH 7.4).
For `CC(C)c1cc(CN(C)C(=O)c2cccc(-c3ccc(F)cc3)c2)no1`, the IC50 was > 50000 nM (Acetyl-CoA synthetase (Cryptococcus neoformans, UniProt J9VFT1)).
With `O=C1NC(=S)S/C1=C\c1ccc2c(c1)OCO2` the IC50 was 250 nM (PIK3CA (Homo sapiens, UniProt P42336); enzyme activity, inhibitor, radiometric).
The IC50 of `CC(NC(=O)C(C)c1ccc(-c2ccccc2)c(F)c1)C(=O)O` (stereo not drawn) is reported as 5.12 nM and < 10 nM (P2Y purinoceptor 14 (P2RY14, Homo sapiens, UniProt Q15391); antagonist).
With `O=C(NC12CC3CC(CC(Cl)(C3)C1)C2)NC12CC3CC(CC(Cl)(C3)C1)C2` the IC50 was 2.1 nM (Ephx2 (Mus musculus, UniProt P34914); enzyme activity, inhibitor, fluorescence).
`COc1cc(O)c(C(CCc2ccc(O)cc2OC)c2ccc(O)cc2)cc1CCC(=O)c1ccc(O)cc1` (stereo not drawn) has an IC50 of 590 nM (ALOX5 (Homo sapiens, UniProt P09917); enzyme activity, inhibitor, HPLC).
With `CC(=O)c1ccc(Nc2cc(C)nc3ccccc23)cc1` the IC50 was 4000 nM (Beta-glucuronidase (uidA, Escherichia coli, UniProt P05804); enzyme activity, inhibitor, fluorescence).
For `N#Cc1ccc(C2Sc3ccccc3NC3=C2C(=O)c2ccccc23)cc1` (racemic), the IC50 was 49 ± 6.8 nM (MT-CYB, bc1 complex (Plasmodium falciparum, UniProt Q02768); enzyme activity, inhibitor; purified mitochondrial fractions).
`CCN(Cc1cccc(S(=O)(=O)O)c1)c1ccc(C(=C2C=CC(=[N+](CC)Cc3cccc(S(=O)(=O)[O-])c3)C=C2)c2ccccc2)cc1` gave an IC50 of 16300 nM (Envelope glycoprotein gp160, gp41 six-helix bundle (env, Human immunodeficiency virus type 1 group M subtype B, UniProt P04578); inhibitor).
`Cc1ccc(NC(=O)NC(C)(C)c2cccc(NC3=CC(=O)N(C4CCC(=O)NC4=O)C3=O)c2)cc1Cl` (stereo not drawn) gave an IC50 of 570 nM (Protein cereblon (CRBN, Homo sapiens, UniProt Q96SW2); ligand displacement, TR-FRET).
The IC50 of `CCC(=O)NC1CC=C(c2cc3c(Nc4cc5ncsc5cc4F)ncnc3s2)CC1` (racemic) is reported as 12 nM (RIPK2; enzyme activity, inhibitor).
For `OB(O)c1sccc1/C=N/OCc1ccccc1`, the IC50 was 700 nM (ELANE; enzyme activity, inhibitor, fluorescence).
The IC50 of `CC1OC(Oc2c(-c3ccc(O)c(O)c3)oc3cc(O)cc(O)c3c2=O)C(O)C(O)C1O` (stereo not drawn) is reported as > 100000 nM (PTPN1 (Homo sapiens, UniProt P18031); enzyme activity, inhibitor, absorbance).
`C=CC(=O)N1CCc2ccc(-n3c(=O)ccc4cnc5ccc(-c6cnn(C)c6)cc5c43)cc21` has an IC50 of > 10000 nM (PTK6 (Homo sapiens, UniProt Q13882); enzyme activity, inhibitor).
The IC50 of `Nc1ccc(Oc2c(F)c(F)c(Oc3ccc(N)cc3)c(F)c2F)cc1` is reported as 810 nM (Estrogen receptor (ESR1, Homo sapiens, UniProt P03372); coactivator recruitment, antagonist).
The IC50 of `CC(C)=CCN=C(N)NCCC[C@@H](NC(=O)CCCc1ccc(O)cc1)C(=O)N[C@@H](Cc1ccccc1)C(O)CC(=O)N[C@@H](Cc1ccc(O)cc1)C(=O)O` (stereo in doubt) is reported as > 100000 nM (Caspase-3 (CASP3, Homo sapiens, UniProt P42574); enzyme activity, inhibitor).
`COc1ccc(OC)c(C(=O)/C=C/c2cccc3ccccc23)c1` has an IC50 of 3500 nM (ABCG2; mitoxantrone efflux, inhibitor, flow cytometry; HEK293 transfected; 30 min, 37 °C, together with: mitoxantrone 5 µM).
`COCc1cc2c(cn1)CN(C(=O)Nc1nc(-c3ccc(F)cc3)ccc1N)C2` has an IC50 of > 30000 nM (HDAC7 (Homo sapiens, UniProt Q8WUI4); deacetylase activity, inhibitor, recombinant enzyme).
The IC50 of `Clc1ccc2[nH]c3c(ccc4c5cc(Cl)ccc5[nH]c43)c2c1` is reported as 43000 nM (ABCG2; Hoechst accumulation, inhibitor; MDCK II transfected with ABCG2).
With `COc1cc(C2c3cc4c(cc3C(C(C)C)C3COC(=O)C23)OCO4)cc(OC)c1OC` (stereo not drawn) the IC50 was 3500 ± 800 nM (tubulin alpha/beta (Leishmania infantum, UniProt A0A381MCS3+A4HTR0); tubulin polymerization, inhibitor; 37 °C).
